# Published values of several laboratories.
# Each line is one published result; not all experiments were run side by side. Numbers after ± are the reported error.
# Sequence of UniProt Q06520 (whole entry, looked up): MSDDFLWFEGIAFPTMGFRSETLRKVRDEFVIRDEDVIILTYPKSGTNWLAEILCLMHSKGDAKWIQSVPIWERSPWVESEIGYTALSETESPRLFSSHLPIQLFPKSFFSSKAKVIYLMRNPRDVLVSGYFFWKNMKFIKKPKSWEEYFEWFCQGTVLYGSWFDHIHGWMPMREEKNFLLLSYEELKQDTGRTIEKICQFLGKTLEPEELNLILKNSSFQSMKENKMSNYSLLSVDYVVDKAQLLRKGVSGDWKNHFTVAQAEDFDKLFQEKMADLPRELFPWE
Structure (SMILES),target or system,test,test system,setting,how to read,endpoint,value
CN[C@](C)(C[18F])C(=O)O,SK-OV-3 tumour model,,"host not given, muscle","30 min, tumour-bearing",,tracer uptake,1.5 %ID/g
C[C@]12CC[C@H](O)CC1CCC1C2[C@H](O)C(=O)[C@]2(C)[C@@H](c3ccc(=O)oc3)CC[C@]12O (stereo partly shown),"Sulfotransferase 2A1 (SULT2A1, Homo sapiens, UniProt Q06520)","sulfation, substrate",human kidney cytosol,pH 7.4,reference: intestine cytosol over kidney cytosol,activity ratio,8.7 fold
COc1cc(C(=O)NCCOCCOCCOCCNC(=O)c2ccc([18F])nc2)ccc1NC(=O)C1NC(CC(C)(C)C)C(C#N)(c2ccc(Cl)cc2F)C1c1cccc(Cl)c1F (stereo not shown),HepG2 tumour model,,"host not given, lung","4 h, tumour-bearing",,tracer uptake,0.38 %ID/g
C[C@@](O)(C(F)F)[C@H](NC(=O)c1ccc(C#CC#CC2CC2)cc1)C(=O)NO,,,"dog, plasma","intravenous, 30 mg/kg",,Cmax,15100 ng/mL
COc1ccc(CNc2nc(N3CCC[C@H]3CO)ncc2C(=O)NN)cc1Cl,Salmonella typhimurium,,TA97a,"62.5 µg/plate, 48 h",,revertant count,153 ± 19
CC[C@H](C)C(=O)N1CCC(NC(=O)Nc2ccc(OC(F)(F)F)c(F)c2)CC1,,,healthy volunteers,"oral, 0.5 mg single dose, ventricular extrasystoles",,subjects with extrasystoles TEAE,0%
COc1ccc(CNc2nc(N3CCC[C@H]3CO)ncc2C(=O)NNC(=O)c2cnc(N3CCC[C@H]3CO)nc2NCc2ccc(OC)c(Cl)c2)cc1Cl,Salmonella typhimurium,,TA97a,"62.5 µg/plate, 48 h",,revertant count,142 ± 6
CN(C)CC1CCCCC1(O)c1cccc(O)c1 (stereo not shown),human P-glycoprotein,,Caco-2 TC7 monolayer,"100 µM, 3 h, apical pH 6.8, basolateral pH 7.4, added: cyclosporine A 10 µM",,Papp A-to-B,6.8 ± 0.7 ×10⁻⁶ cm/s
CCC(=O)N(C)c1ccc(Cl)c(Cl)c1,Salmonella typhimurium,Ames test,TA1537,"0.05 mg/plate, without S9 activation",,revertants,0 revertants/plate
CSCC[C@@H]1NC(=O)[C@@H]2CSSC[C@H](NC(=O)[C@H](CO)NC(=O)[C@H](C)N)C(=O)N[C@@H](CCCNC(=N)N)C(=O)N[C@@H]([C@@H](C)O)C(=O)N3CCC[C@H]3C(=O)N[C@@H](CCCCN)C(=O)N[C@@H](CC(=O)O)C(=O)N[C@H]3CSSC[C@H](NC(=O)[C@H](CCCCN)NC(=O)[C@H](CCCNC(=N)N)NC(=O)[C@H](CC(N)=O)NC1=O)C(=O)N[C@@H](CCCCN)C(=O)N[C@H]1CSSC[C@H](NC(=O)[C@@H]4CCCN4C(=O)[C@H](CC(=O)O)NC(=O)[C@H](C)NC3=O)C(=O)N[C@@H](C)C(=O)N[C@@H](CCCCN)C(=O)N[C@@H](CCC(=O)O)C(=O)N[C@@H]([C@@H](C)O)C(=O)NCC(=O)N[C@@H](CSSC[C@@H](C(N)=O)NC(=O)[C@H](CCCNC(=N)N)NC(=O)[C@H](CC(N)=O)NC1=O)C(=O)N1CCC[C@H]1C(=O)N[C@@H](Cc1ccc(O)cc1)C(=O)NCC(=O)N[C@@H](CCCCN)C(=O)N2,,,"DA rat, pristane-induced arthritis, serum","subcutaneous, 0.1 mg/kg once weekly, 21 days",,blood urea nitrogen,13.6 mg/dL
